{"data": "Assay results collected from several papers", "note": "Every numbered part comes from another study and shows a few of its results, in no order. Positions count from the first letter of the parent shown."}
{"data": "Sample 1", "target": "CREBRF, bZIP domain (human)", "technique": "DHFR protein complementation", "sample": "yeast", "setting": "single substitutions, most at no-binding floor", "relative to": "wild-type JUN-FOS pair", "direction": "higher = stronger binding", "starting sequence": "JUN, bZIP domain (human); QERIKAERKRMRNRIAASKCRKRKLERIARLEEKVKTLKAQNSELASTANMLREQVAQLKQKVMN; partner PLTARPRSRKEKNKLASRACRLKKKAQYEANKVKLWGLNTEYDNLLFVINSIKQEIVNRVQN"}
{"Variant": "Q55G", "binding fitness [natural log]": -1.46}
{"Variant": "A46S", "binding fitness [natural log]": -1.46}
{"Variant": "K39E", "binding fitness [natural log]": -1.48}
{"Variant": "V35M", "binding fitness [natural log]": -1.53}
{"Variant": "S43G", "binding fitness [natural log]": -1.44}
{"Variant": "K34D", "binding fitness [natural log]": -1.32}
{"Variant": "K36E", "binding fitness [natural log]": -1.49}
{"Variant": "L52E", "binding fitness [natural log]": -1.41}
{"Variant": "T48W", "binding fitness [natural log]": -1.19}
{"Variant": "E44G", "binding fitness [natural log]": -1.4}
{"Variant": "L59A", "binding fitness [natural log]": -1.46}
{"data": "Sample 2", "target": "Sal-like protein 4, full length isoform B (SALL4, Homo sapiens, UniProt Q9UJQ4-2, residues 1-616)", "technique": "universal PBM", "form": "double-stranded DNA, one strand shown", "sample": "in vitro", "tested at": "not given", "setting": "8-mer, flanks averaged, mean of replicates", "direction": "higher = stronger binding"}
{"Strand": "CACAACAC", "E-score": 0.0979}
{"Strand": "GAACCGCA", "E-score": -0.192}
{"Strand": "TGCAAGCA", "E-score": 0.0594}
{"Strand": "CTAGCGCA", "E-score": -0.224}
{"Strand": "GGCAGAAA", "E-score": 0.0556}
{"Strand": "ACCTATAA", "E-score": 0.247}
{"Strand": "CCAGTCCC", "E-score": -0.157}
{"Strand": "TGTACTAA", "E-score": 0.218}
{"Strand": "AAGCCCAC", "E-score": -0.144}
{"Strand": "CTAGGGAC", "E-score": -0.161}
{"Strand": "CCCTCATC", "E-score": -0.0571}
{"Strand": "GACCCGGC", "E-score": -0.317}
{"Strand": "ATTGTTAC", "E-score": 0.292}
{"Strand": "CTAGCAGC", "E-score": -0.192}
{"Strand": "CTGACCAG", "E-score": -0.209}
{"Strand": "AGAGTTAG", "E-score": 0.0208}
{"Strand": "ACGAGGTG", "E-score": 0.0377}
{"Strand": "GCAAGCCA", "E-score": -0.24}
{"Strand": "AGACTGAC", "E-score": -0.0715}
{"Strand": "AGAACCTC", "E-score": -0.167}
{"Strand": "CGTTGTAG", "E-score": 0.00387}
{"Strand": "CCATCCAG", "E-score": -0.0278}
{"Strand": "ATCTAGAC", "E-score": -0.055}
{"Strand": "GCGCGCGA", "E-score": -0.312}
{"Strand": "AACATGCA", "E-score": 0.217}
{"data": "Sample 3", "target": "ABI1, truncated, D143A, DHFR fusion (Arabidopsis thaliana, UniProt P49597)", "technique": "DHFR PCA, dose-response", "sample": "yeast", "setting": "Hill fit, mean, not affinity", "together with": "(+)-ABA, dose series", "direction": "lower = more sensitive", "starting sequence": "PYL1, truncated, DHFR fusion (Arabidopsis thaliana, UniProt Q8VZS8); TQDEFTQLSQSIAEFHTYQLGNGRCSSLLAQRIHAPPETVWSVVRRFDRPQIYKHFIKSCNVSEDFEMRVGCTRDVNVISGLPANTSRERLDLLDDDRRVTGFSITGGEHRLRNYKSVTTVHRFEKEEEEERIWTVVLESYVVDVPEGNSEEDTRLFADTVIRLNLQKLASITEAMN"}
{"Variant": "E139T", "ABA EC50 [µM]": 0.362}
{"Variant": "F66V", "ABA EC50 [µM]": 7.51}
{"Variant": "F103I", "ABA EC50 [µM]": 134}
{"Variant": "G21A", "ABA EC50 [µM]": 1.82}
{"Variant": "C60A", "ABA EC50 [µM]": 18.2}
{"Variant": "C72H", "ABA EC50 [µM]": 10.6}
{"Variant": "V62N", "ABA EC50 [µM]": 108}
{"Variant": "S150C", "ABA EC50 [µM]": 8.59}
{"Variant": "N22L", "ABA EC50 [µM]": 3.12}
{"Variant": "W134E", "ABA EC50 [µM]": 1.04}
{"Variant": "E89D", "ABA EC50 [µM]": 156}
{"Variant": "R69D", "ABA EC50 [µM]": 7.34}
{"Variant": "S87G", "ABA EC50 [µM]": 503}
{"Variant": "R45N", "ABA EC50 [µM]": 119}
{"Variant": "I33T", "ABA EC50 [µM]": 225}
{"Variant": "V143L", "ABA EC50 [µM]": 41.5}
{"Variant": "D48K", "ABA EC50 [µM]": 188}
{"Variant": "D75G", "ABA EC50 [µM]": 23.5}
{"Variant": "S150V", "ABA EC50 [µM]": 32.8}
{"Variant": "F124W", "ABA EC50 [µM]": 1.22}
{"Variant": "N61I", "ABA EC50 [µM]": 2.4}
{"Variant": "Q167G", "ABA EC50 [µM]": 3.16}
{"Variant": "R88A", "ABA EC50 [µM]": 6.87}
{"data": "Sample 4", "target": "Histone acetyltransferase KAT6A, winged helix 2, GST fusion (KAT6A, Homo sapiens, UniProt Q92794, residues 85-181)", "technique": "protein binding microarray", "form": "double-stranded DNA, one strand shown", "sample": "in vitro", "tested at": "not given", "setting": "8-mer, flanks averaged, mean of 2 arrays, mostly near background", "relative to": "not given", "direction": "higher = stronger binding", "Construct (chain)": "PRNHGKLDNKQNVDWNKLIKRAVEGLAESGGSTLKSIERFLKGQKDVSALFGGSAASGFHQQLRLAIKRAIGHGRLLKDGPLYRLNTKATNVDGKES"}
{"Strand": "CTCAAGTA", "E-score": -0.233}
{"Strand": "AAACCCAT", "E-score": -0.0383}
{"Strand": "AAAGGGCA", "E-score": 0.0893}
{"Strand": "CGGAATCA", "E-score": 0.0558}
{"Strand": "ACAAGACA", "E-score": 0.00348}
{"Strand": "CATATCAG", "E-score": -0.112}
{"Strand": "GTTCAGTA", "E-score": 0.00702}
{"Strand": "AGCGGGTC", "E-score": 0.0555}
{"Strand": "GTTGATAA", "E-score": 0.152}
{"Strand": "AGATGGCA", "E-score": 0.0508}
{"Strand": "AAAGCCAT", "E-score": 0.0369}
{"Strand": "GATAGATC", "E-score": -0.0874}
{"Strand": "AGGGGTGC", "E-score": -0.132}
{"Strand": "AGAGATGA", "E-score": -0.0371}
{"Strand": "GGCATGGA", "E-score": 0.0934}
{"Strand": "CTCATTCA", "E-score": -0.041}
{"data": "Sample 5", "target": "Phosphate system positive regulatory protein PHO4, full length, GST-tagged (PHO4, Saccharomyces cerevisiae, UniProt P07270, residues 1-312)", "technique": "competition protein-binding microarray", "form": "double-stranded DNA, one strand shown", "sample": "in vitro", "tested at": "2 µM", "setting": "whole 60-bp probe, lowest competitor level", "together with": "Cbf1 competitor, 0.05 µM", "direction": "higher = stronger binding", "all sequences stand within": "… GTCTTGATTCGCTTGACGCTGCTG", "Construct (chain)": "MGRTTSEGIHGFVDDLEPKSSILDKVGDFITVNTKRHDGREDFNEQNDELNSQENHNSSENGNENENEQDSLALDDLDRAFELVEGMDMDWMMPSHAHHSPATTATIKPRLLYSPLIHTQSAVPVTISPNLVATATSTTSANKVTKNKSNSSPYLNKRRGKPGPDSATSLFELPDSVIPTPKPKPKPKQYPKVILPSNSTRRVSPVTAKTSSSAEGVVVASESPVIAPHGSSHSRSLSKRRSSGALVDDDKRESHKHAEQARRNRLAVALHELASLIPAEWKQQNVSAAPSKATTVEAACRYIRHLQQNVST"}
{"Strand": "TTGTGCTCGCTGGGCGGCGTGCCGATGCTTTCATCG", "fluorescence intensity [a.u.]": 7250}
{"Strand": "CGTCCTAGTGATTGCGCGGTGGGTGCCATGAGGAAG", "fluorescence intensity [a.u.]": 7540}
{"Strand": "AAAATGTTAGCCCATCACGATGGAAACTTAACTGCT", "fluorescence intensity [a.u.]": 5790}
{"Strand": "CTTTCCCGATCTTGATGTGTGGGTGTAGCACATTTG", "fluorescence intensity [a.u.]": 5980}
{"Strand": "CATACCCAACCTTGCTTAGTGGGTGAAGATATTTGT", "fluorescence intensity [a.u.]": 3830}
{"Strand": "CATACCCAACCTTTTCACGTGGTCTAAGATATTTGT", "fluorescence intensity [a.u.]": 14300}
{"Strand": "GAATCCTATGCTTCACACATGAGGACAGGTTACGAA", "fluorescence intensity [a.u.]": 6220}
{"Strand": "CGTCCTAGTGATTGTTACGTGGGTGCCATGAGGAAG", "fluorescence intensity [a.u.]": 9360}
{"Strand": "CTTTCCCGATCTTGTAACGTGGGTGTAGCACATTTG", "fluorescence intensity [a.u.]": 10900}
{"Strand": "GTCTTGTCTCATTTTCACGTGGGTTTCCCCACTTCA", "fluorescence intensity [a.u.]": 14400}
{"Strand": "ACTATACTCGTCTGGCACGTGAAGTACATGAACTCA", "fluorescence intensity [a.u.]": 16600}
{"Strand": "CTTCTGTAAATTTGGGCCGTGGGTGGACGCGCCCCG", "fluorescence intensity [a.u.]": 5330}
{"Strand": "TTCATTGATGAAATTCACATGTTAATGGGTAATGGT", "fluorescence intensity [a.u.]": 7350}
{"Strand": "CATACCCAACCTTGGATTGTGGGTGAAGATATTTGT", "fluorescence intensity [a.u.]": 4910}
{"Strand": "CTGTTTACCAATACTCACGTGGCCGCTCTTCTTTAG", "fluorescence intensity [a.u.]": 16100}
{"Strand": "ACTACATGCCAGCAGCCCGTGCGGATGCCAAATTTG", "fluorescence intensity [a.u.]": 10000}
{"Strand": "CGTCCTAGCGATTGAGGCGTGGGTGCCATGAGGAAG", "fluorescence intensity [a.u.]": 9250}
{"Strand": "GTCTTGTCTCATTGGTGCGTGGGTGTCCCCACTTCA", "fluorescence intensity [a.u.]": 10000}
{"Strand": "GTCTTGTCTCATTGCCGCGTGGGTGTCCCCACTTCA", "fluorescence intensity [a.u.]": 11700}
{"Strand": "ATACACATAGAAGGACACGTGGAACTAACAGTCATT", "fluorescence intensity [a.u.]": 17400}
{"Strand": "TTGTCTCACTATTAACGCGTGGCCGGGTAAGACCCA", "fluorescence intensity [a.u.]": 9400}
{"Strand": "TGCGCAACAACTTGTGGGGTGGGTGTATGTCTAGAA", "fluorescence intensity [a.u.]": 5970}
{"data": "Sample 6", "target": "CCNA2, cyclin fold, Cln2 fusion (human)", "technique": "yeast growth competition, sequencing", "sample": "yeast", "setting": "strong parent motif", "relative to": "not given", "direction": "higher = stronger binding", "starting sequence": "MICAL3 docking peptide (human); LQLRRQLSFSEDS"}
{"Variant": "Q6T", "normalised enrichment score": 2.11}
{"Variant": "Q2F", "normalised enrichment score": 3.37}
{"Variant": "D12Y", "normalised enrichment score": 3.35}
{"Variant": "S8D", "normalised enrichment score": 4.47}
{"Variant": "Q2I", "normalised enrichment score": 2.55}
{"Variant": "L3Y", "normalised enrichment score": 3.62}
{"Variant": "S10A", "normalised enrichment score": 2.79}
{"Variant": "E11V", "normalised enrichment score": 2.82}
{"Variant": "D12I", "normalised enrichment score": 3.84}
{"Variant": "L3N", "normalised enrichment score": 0.618}
{"Variant": "R4Y", "normalised enrichment score": 0.903}
{"Variant": "D12N", "normalised enrichment score": 3.5}
{"Variant": "S8M", "normalised enrichment score": 3.2}
{"Variant": "L3K", "normalised enrichment score": 1.06}
{"Variant": "L3C", "normalised enrichment score": 5.55}
{"Variant": "L3H", "normalised enrichment score": 1.99}
{"Variant": "L3V", "normalised enrichment score": 5.85}
{"note": "Excerpt of the above (sample 4):"}
{"Strand": "AGGGGTGC", "E-score": -0.132}
{"Strand": "AAAGCCAT", "E-score": 0.0369}
{"Strand": "AGCGGGTC", "E-score": 0.0555}
{"Strand": "AGATGGCA", "E-score": 0.0508}
{"Strand": "GGCATGGA", "E-score": 0.0934}
{"Strand": "GTTGATAA", "E-score": 0.152}
{"Strand": "CGGAATCA", "E-score": 0.0558}
{"Strand": "AAACCCAT", "E-score": -0.0383}
{"Strand": "GATAGATC", "E-score": -0.0874}
{"Strand": "AGAGATGA", "E-score": -0.0371}
{"Strand": "GTTCAGTA", "E-score": 0.00702}
{"Strand": "CATATCAG", "E-score": -0.112}
{"Strand": "ACAAGACA", "E-score": 0.00348}
{"Strand": "CTCAAGTA", "E-score": -0.233}
{"Strand": "CTCATTCA", "E-score": -0.041}
{"Strand": "AAAGGGCA", "E-score": 0.0893}
